# Measured values pooled from the literature.
# Numbered parts are unrelated; each lists some results of a single study.

# Study 1 — method: RNA Bind-n-Seq; form: RNA; sample: in vitro; concentration: 365 nM; baseline: no-protein control; reading: higher = stronger binding
# Target: RNA binding protein fox-1 homolog 2, RRM domain, GST-SBP tag (RBFOX2, Homo sapiens, UniProt O43251-10, residues 100-194)
# Setting: natural RNA segment, single round, ends assumed
# Target sequence (chain): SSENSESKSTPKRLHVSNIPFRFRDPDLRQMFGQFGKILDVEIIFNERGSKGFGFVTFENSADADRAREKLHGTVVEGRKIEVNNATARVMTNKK
Oligonucleotide,RBNS enrichment (R)
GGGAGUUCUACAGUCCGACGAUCAGCGCUUGCCCGAGGCCAGCGCGCUCCCCGCGCCAGGACUCCAUUAAAGCCGCUAAGACGCGCGGGCGCUCCGCCUCCACGCCUGUUUUUUGCCUUCCGAGGGCUGCACUUGGAAUUCUCGGGUGCCAA,0.358
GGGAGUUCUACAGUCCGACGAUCCCCUUCUGAGGCCACAGGCAGGGCAGCUUAGUUCACCGCAGUCCGUACCUUGGAUAAGGGGCCUCACUUGAACCCAUCUUGAAUACCCUUUGCCAGGUGCUUAUUUAAGUUGGAAUUCUCGGGUGCCAA,0.285
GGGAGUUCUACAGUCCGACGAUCAGAACUGACUUCUGAAACGAAGAGAAAAGCACCUAUGGAUCCCACUCCUUCCCAUCGCUUACCUGUUCCCCAGCUCCCCGUUGACCCACCCUGGUAGAUUAGCCAGCUGUUGGAAUUCUCGGGUGCCAA,0.605
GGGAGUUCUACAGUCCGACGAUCCAGUGUUCUUCAUCAAUGUUAGUUAAUAUCCCAUUGCUUGUGUGGCGCCUUGAGUUGGUGGUAGACUAGGGCAAAUGCCCUCUUUAGUGAGAGACCAGAGGUUUUGUAUAUGGAAUUCUCGGGUGCCAA,3.67
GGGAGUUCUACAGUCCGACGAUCAUUGCCUGGCGCAGAAAGACAAGGAAACGGCAGCCAUUGCUGACUGUGACCACAUCAGGGCCUUGAAUCUUUGUACCUGACAGACCUGGGACCUGGAGUUCGGGCAGAUGUGGAAUUCUCGGGUGCCAA,0.34
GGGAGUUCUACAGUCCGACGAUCUUGUCUGUCUAUGUUGUGCCUUAGUGCCUGCACUGCCCCUACCCUUCUGCUGCCUGACCUCUGCAUGGUGUCUUGACCUGGGCCUCAUGUGUAGCUGCACUGCCUUUGUCUGGAAUUCUCGGGUGCCAA,6.43
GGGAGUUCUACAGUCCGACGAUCAAAUAGUAUUUGAAAUAAUACCAGAAAACGGGGACCACAGUACUGUUCGAUGUUUUCAAGUGAGAAAGAGGAAUGUAGUAUGCUUUGGCAUAGUUUGGGAGUGGAGAAUAUGGAAUUCUCGGGUGCCAA,0.939
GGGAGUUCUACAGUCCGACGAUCGUAGGUGUAAAAGUGUAUUCAAACUCUAGACACGGCUAAUCAGAUUUUAAUUCAAUCAUACACACAUAAUCCUUUGUAAUCAUUUUUCUUUUAAGUGAGGAUAUCUACUGUGGAAUUCUCGGGUGCCAA,0.473
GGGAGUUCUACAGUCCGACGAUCAAUGAAUGGCACAGGUGAGGGCCUGUGCCACGCCCCACACACCUCAGGGCCAAGCGGGGGCGUGGCUGGCCCUUCAGGUCAGGCCAGUGGGCCUGGUAGCACAUGUCUGUUGGAAUUCUCGGGUGCCAA,0.318

# Study 2 — method: RNA Bind-n-Seq; form: RNA; sample: in vitro; concentration: not given; baseline: input RNA pool; reading: higher = stronger binding
# Target: RING finger protein unkempt homolog, zinc fingers 1-6, GST-SBP tag (UNK, Homo sapiens, UniProt Q9C0B0, residues 30-357)
# Setting: RNA with constant flanks, human and mouse sites, ends assumed
# Construct (chain): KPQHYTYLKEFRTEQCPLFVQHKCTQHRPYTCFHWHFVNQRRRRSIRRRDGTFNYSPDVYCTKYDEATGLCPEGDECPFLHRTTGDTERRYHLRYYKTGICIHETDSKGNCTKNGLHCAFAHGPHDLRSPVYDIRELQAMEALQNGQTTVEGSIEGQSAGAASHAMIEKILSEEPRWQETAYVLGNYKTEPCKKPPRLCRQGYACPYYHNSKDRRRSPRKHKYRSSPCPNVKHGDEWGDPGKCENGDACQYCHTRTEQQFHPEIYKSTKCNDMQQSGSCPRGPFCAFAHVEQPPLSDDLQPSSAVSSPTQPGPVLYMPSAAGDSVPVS
Oligonucleotide,bound/input enrichment [ratio]
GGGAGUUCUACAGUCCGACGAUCCGGAUCUUUGGUGAAGUGGCCAGGUCUACUGACUCAAAGUCCAUGAAAGUGGUGAGCCUGUUUAGCGAGCAGCCCUUGGCCAAGAAGAAAGAGACUUAUGACUGGUAUCCAAAUCACAACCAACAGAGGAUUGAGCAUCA,0.0757
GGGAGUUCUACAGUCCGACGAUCGAUUUUUAUUUUAUGUAUAUGAGUACACUGUAGCUGUCUUCAGACACACCAGAAGAGGGCAUAGAAUCCCAUUACAGAUUAUUGAGAGCCACCAUGUGAUUACUGGGGAUUGAACUCAUGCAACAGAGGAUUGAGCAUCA,0.4
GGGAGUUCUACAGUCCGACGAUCACAUUUUCAGACUGUCUCAUGGUGGUGCAGUUCUUACGAAACUUUGGUAAAGUUUUGGGCUUUGAUGUGAAUAUUGAUGUUCCAAACCUCAGUGUUCUUCAAGAGGGAUUGCUAAAUAUACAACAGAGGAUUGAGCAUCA,0.559
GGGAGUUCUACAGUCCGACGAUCACGGUUGGCCAUGGGUCUGACUACUCUUUGAGUGAAGUGCUCUGGGUCUGUGCCAACCUCUUCAGCGACGUCCAGCUCAAGAUGAGUCACAAGAGGAUCAUGCUGUUCACCAAUGAAGACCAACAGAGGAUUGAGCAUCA,0.13
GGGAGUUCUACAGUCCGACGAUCCUUACUCAUCAUUUAAAAACUAUAUUUACAGAAGAUGUUUGGUUGCUGGGGGGGCUUUUUUAGGUUUUGGGGCAUUUGUUUUUUGUAAAUAAGAUGAUUAUGCUUUGUGGCUAUCCAUCACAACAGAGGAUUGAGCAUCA,1.98
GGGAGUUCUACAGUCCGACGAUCCGUGCUUUUGAAGAUGAUGAUAUCACGCACGUUGAAGGAAGUGUAGAUCCUAUUCGAGAUAUAGAAAUAAUACAUGAAGAGCUUCAGCUUAAAGAUGAGGAAAUGAUUGGGCCCAUUAUACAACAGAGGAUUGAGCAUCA,1.1
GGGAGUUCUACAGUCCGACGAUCUACGACUACUCGCCCUAUGGCUAUUACGGCUACGGCCCCGGCUACGACUACAGUCAGGGUAGUACAAACUACGGCAAGAGCCAGCGACGUGGUGGCCAUCAGAAUAACUACAAGCCAUACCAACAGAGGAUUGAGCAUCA,0.146
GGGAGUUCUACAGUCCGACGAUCUUAGACUGUAAGCUUGCCAAGGGCAGGGACUGUGUUUUAUUCAUCUGUAUCCAUCACAGCACUAGGCGUGGUGCAUAGCACACAGCAGUUGCUCAAUAAAUGUUUGUUGGAUUAAAUCCUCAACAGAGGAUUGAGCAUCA,0.408
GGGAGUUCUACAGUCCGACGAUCAUGAGUAAGCAGUACGGCAGCGAGACGUUUUUGGCCAAGCUUAUUGCUCAGGCUUGUGUUUCUAUCUUUCCUGAUUCUGGCAAUUUCAAUGUUGAUAACAUCAGAGUAUGUAAGAUUCUGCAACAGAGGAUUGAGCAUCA,0.221
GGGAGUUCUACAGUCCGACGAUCGCAACUUGGAAAGGCUGUCUUUCAAACUUCAGUUCCUAUCUGACUAAAACAGCCGAUUUCAUAGAACAAUCAGUUUUUUACUGGGAACAGGUGACAGAUGGGUUUUUCAUUUUCAAUGAACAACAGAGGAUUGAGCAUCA,0.213
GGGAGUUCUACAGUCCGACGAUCGUUUUUAUCAUUUUAAGAACAUUUCAUAAACAGAAUUGUACUUUUAAAAACAAUUUUUUAUUUAGCAUUCUACCUUUUGAAAUGUACUGUCUUACUCCAAAUAAUAUCCUGAGAUCUAUCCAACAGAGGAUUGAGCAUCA,0.689

# Study 3 — method: RNA Bind-n-Seq; form: RNA; sample: in vitro; concentration: 1 µM; setting: whole 134-nt RNA, ends assumed; added: 150 mM KCl; baseline: input library; reading: higher = stronger binding
# Target: Ras GTPase-activating protein-binding protein 1, C-terminal RGG region (G3BP1, Homo sapiens, UniProt Q13283)
# UniProt Q13283, sequence (whole entry, looked up): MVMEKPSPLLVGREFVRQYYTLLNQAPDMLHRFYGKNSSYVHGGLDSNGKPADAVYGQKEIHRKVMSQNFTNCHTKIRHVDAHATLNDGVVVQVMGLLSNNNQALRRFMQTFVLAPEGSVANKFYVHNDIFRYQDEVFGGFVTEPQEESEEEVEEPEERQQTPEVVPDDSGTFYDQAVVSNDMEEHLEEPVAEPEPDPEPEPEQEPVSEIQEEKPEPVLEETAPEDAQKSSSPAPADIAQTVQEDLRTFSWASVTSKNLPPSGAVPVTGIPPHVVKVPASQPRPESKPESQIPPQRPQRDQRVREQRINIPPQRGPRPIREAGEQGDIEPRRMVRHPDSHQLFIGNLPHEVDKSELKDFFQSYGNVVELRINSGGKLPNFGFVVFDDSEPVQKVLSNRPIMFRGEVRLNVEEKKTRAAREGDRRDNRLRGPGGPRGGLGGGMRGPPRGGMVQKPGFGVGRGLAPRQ
Oligonucleotide,log2 enrichment
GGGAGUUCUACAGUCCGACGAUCCAAGUCCUGUGCUACACAUCGUAUGUACCGAAUCGGAAAAAAAGGAAAAAGGUGGAAAGUAUUAUGUUACGCCGUUCGGAUCUGCACUUCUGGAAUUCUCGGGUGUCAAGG,-1.87
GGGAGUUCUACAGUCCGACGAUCAGUCCUGUGCUACACAUCGUAUGUACCGAAUCAAAUUUUUUUAAAUUUAAAUUUAAAAAAGUAUUAUGUUACGCCGUUCGGAUCUGCACUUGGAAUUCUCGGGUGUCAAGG,-2.71
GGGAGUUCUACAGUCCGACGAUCCCUGUGCUACACAUCGUAUGUACCGAAUCGGGGCCCCCGGGGCCCCCGGGGCCCCCGGGGAAAGUAUUAUGUUACGCCGUUCGGAUCUGCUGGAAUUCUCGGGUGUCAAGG,-1.94
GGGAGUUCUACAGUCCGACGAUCACCAAACAGGUGGGCAUCUUUGGGAAGUGGGGCAAGGGGGGGAUAGGGAGGGGGGUAACACUUUGGGAACAGGUGGUCCCAGGUCGUUUCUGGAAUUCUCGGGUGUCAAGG,-0.914
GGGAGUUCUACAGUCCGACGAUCCUCAAGUCCUGUGCUACACAUCGUAUGUACCGAAUCGGAAAGGGAAAGGAAAGGAAAGUAUUAUGUUACGCCGUUCGGAUCUGCACUUCCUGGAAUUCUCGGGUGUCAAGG,-1.54
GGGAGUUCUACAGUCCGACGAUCUCAAGUCCUGUGCUACACAUCGUAUGUACCGAAUCGGGGAGGGGAGGGGUGGGGAAAGUAUUAUGUUACGCCGUUCGGAUCUGCACUUCCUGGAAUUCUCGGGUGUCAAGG,3.23
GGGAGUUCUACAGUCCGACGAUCUCAAGUCCUGUGCUACACAUCGUAUGUACCGAAUCGGCCCGGGCCCGGGGCCCGGAAAGUAUUAUGUUACGCCGUUCGGAUCUGCACUUCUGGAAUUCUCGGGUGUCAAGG,-1.68
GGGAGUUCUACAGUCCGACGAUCCCUCAAGUCCUGUGCUACACAUCGUAUGUACCGAAUCGGAAAAAGGAGGAGGAAAGUAUUAUGUUACGCCGUUCGGAUCUGCACUUCCAGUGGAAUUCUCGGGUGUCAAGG,-0.73
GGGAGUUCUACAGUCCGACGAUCCCUCAAGUCCUGUGCUACACAUCGUAUGUACCGAAUCGGUUGGUUGGGUUGGAAAGUAUUAUGUUACGCCGUUCGGAUCUGCACUUCCAGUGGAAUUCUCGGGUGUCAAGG,-0.77
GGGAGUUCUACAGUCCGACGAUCCCUGUGCUACACAUCGUAUGUACCGAAUCGGGGAAAAAAGGAAAAAAGGGGAAAAAAGGGAAAGUAUUAUGUUACGCCGUUCGGAUCUGCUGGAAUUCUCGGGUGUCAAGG,-1.72

# Study 4 — method: aptamer microarray, sandwich; form: DNA with 2'F-ANA; sample: in vitro; concentration: 200 nM; added: Cy3 exosite-II aptamer, 400 nM; reading: higher = stronger binding; oligonucleotide: GGTTGGTGTGGTTGG
# Target: Prothrombin, mature alpha-thrombin (F2, Homo sapiens, UniProt P00734)
# Setting: whole 15-mer aptamer, many near background
Modification,mean fluorescence intensity
2'F-ANA at 1 3 4 5 7 8 9 12,141 a.u.
2'F-ANA at 1 2 4 5 9 10 11 14 15,48.4 a.u.
2'F-ANA at 2 3 6 9 12 13,797 a.u.
2'F-ANA at 1 3 4 6 9 12 13 14 15,67.5 a.u.
2'F-ANA at 2 4 6 8 9 10 11 13 14 15,58.4 a.u.
2'F-ANA at 1 3 4 6 10 12 15,85.2 a.u.
2'F-ANA at 1 2 8 9 12 14,70.2 a.u.
2'F-ANA at 7 8 9 10 11 12 13,233 a.u.
2'F-ANA at 2 5 7 11 13 14 15,49.1 a.u.
2'F-ANA at 1 4 5 8 9 13 14,45.3 a.u.
2'F-ANA at 1 3 6 9 12,514 a.u.
2'F-ANA at 1 2 3 4 5 6 9 10 11 13 14 15,52.8 a.u.
2'F-ANA at 3 5 7 11 15,112 a.u.
2'F-ANA at 3 4 5 8 9 10 12 14 15,56.4 a.u.
2'F-ANA at 1 2 5 8 10 11 15,52.4 a.u.
2'F-ANA at 1 2 11 12 13 15,244 a.u.
2'F-ANA at 3 5 7 8 10,79.7 a.u.
2'F-ANA at 4 5 6 7 8 11 13 14,47.5 a.u.
2'F-ANA at 1 4 5 9 10 13 14 15,47 a.u.
2'F-ANA at 1 2 3 4 5 6 7 9 10 11 13,53.4 a.u.
2'F-ANA at 2 7 8 11 13 15,387 a.u.
2'F-ANA at 1 2 4 5 6 9 10 13 15,48.9 a.u.
2'F-ANA at 1 2 3 5 8 11 13,51.7 a.u.
2'F-ANA at 1 2 3 5 7 9,65.7 a.u.
